Measured values gathered from unrelated publications.
Compare with care: the assays were run in different laboratories. ± marks the error that the study gave.

| Compound | target or system | test | test system | conditions | how to read | measurement | value |
| --- | --- | --- | --- | --- | --- | --- | --- |
| F[P-](F)(F)(F)(F)F.F[P-](F)(F)(F)(F)F.[Ru+2].c1ccc(-c2ccccn2)nc1.c1ccc(-c2ccccn2)nc1.c1csc(-c2ccc(-c3cc4cccnc4c4ncccc34)s2)c1 | HL-60 | cell viability, resazurin | – | 16 h drug-to-light interval, with: visible light 100 J/cm2 | – | EC50 | 0.31 ± 0.01 µM |
| CC(C)C[C@H](NC(=O)[C@H](CC(C)C)NC(=O)[C@H](CCCCN)NC(=O)[C@H](CCCCN)NC(=O)[C@H](C)NC(=O)[C@H](CC(C)C)NC(=O)[C@H](C)NC(=O)[C@H](C)NC(=O)[C@H](CC(C)C)NC(=O)[C@H](C)NC(=O)[C@H](CCCCN)NC(=O)[C@H](CC(C)C)NC(=O)[C@H](C)NC(=O)[C@H](CC(C)C)NC(=O)[C@H](CCCCN)NC(=O)CNC(=O)[C@H](CC(C)C)NC(=O)[C@H](CC(C)C)NC(=O)[C@H](Cc1c[nH]c2ccccc12)NC(=O)CNC(=O)[C@H](C)N)C(N)=O | sheep erythrocytes | turbidity | – | pH 7.5 | – | EC50 | 5.3 ± 0.8 µM |
| N#Cc1nn(-c2c(Cl)cc(C(F)(F)F)cc2Cl)c(N)c1[S+]([O-])C(F)(F)F (centres unmarked) | Caco-2 | viability, MTT | – | 72 h | – | EC50 | 24.1 ± 0.4 µM |
| CC[C@H](C)[C@H](NC(=O)[C@H](CCCCN)NC(=O)[C@H](CCCCN)NC(=O)[C@H](C)NC(=O)[C@H](CC(C)C)NC(=O)[C@H](C)NC(=O)[C@H](C)NC(=O)[C@H](CC(C)C)NC(=O)[C@H](C)NC(=O)[C@H](CCCCN)NC(=O)[C@H](CC(C)C)NC(=O)[C@H](CC(N)=O)NC(=O)[C@@H](NC(=O)[C@H](CC(=O)O)NC(=O)CNC(=O)[C@H](CC(C)C)NC(=O)[C@H](CC(C)C)NC(=O)[C@H](Cc1c[nH]c2ccccc12)NC(=O)CNC(=O)[C@H](C)N)[C@@H](C)CC)C(=O)N[C@@H](CC(C)C)C(N)=O | sheep erythrocytes | turbidity | – | pH 7.5 | – | EC50 | 50 ± 7 µM |
| CN[C@@](C)(C[18F])C(=O)O | – | – | SCID mouse SK-OV-3 xenograft, pancreas | 120 min, post injection | – | tissue uptake | 14 ± 3.6 %ID/g |
| CC[C@H](C)[C@H](NC(=O)[C@H](C)NC(=O)[C@H](C)NC(=O)[C@H](CC(N)=O)NC(=O)[C@H](C)NC(=O)[C@H](C)NC(=O)[C@H](C)NC(=O)[C@H](CCCNC(=N)N)NC(=O)[C@H](CC(C)C)NC(=O)[C@@H](NC(=O)[C@H](CCC(=O)O)NC(=O)[C@@H]1CCCN1C(=O)CNC(=O)[C@H](CCCCN)NC(=O)[C@H](CCC(=O)O)NC(=O)[C@H](CCCCN)NC(=O)[C@@H](NC(=O)[C@H](Cc1ccccc1)NC(=O)[C@H](CC(=O)O)NC(=O)[C@H](CCCCN)NC(=O)[C@H](C)NC(=O)[C@H](CCCCN)NC(=O)[C@H](CC(N)=O)NC(=O)[C@H](CC(C)C)NC(=O)[C@H](Cc1c[nH]c2ccccc12)NC(=O)[C@H](CC(=O)O)NC(=O)[C@H](CCCCN)NC(=O)[C@H](Cc1c[nH]c2ccccc12)NC(=O)CN)[C@@H](C)CC)[C@@H](C)CC)C(=O)N[C@@H](CC(N)=O)C(=O)O | F11 cells | intracellular calcium, FLIPR | – | 0.1% BSA | – | EC50 | 22.9 ± 1.95 µM |
| O=c1c(O)c(-c2ccc(O)c(O)c2)oc2c1ccc1ccccc12 | HT-22 | cell survival, MTT | – | 24 h, in vitro ischemia, with: iodoacetic acid 20 µM, 2 h | – | EC50 | 0.088 µM |
| CSCC[C@H](NC(=O)[C@H](CCCCN)NC(=O)[C@H](CCCCN)NC(=O)[C@@H](NC(=O)[C@H](CCCCN)NC(=O)[C@H](CC(=O)O)NC(=O)[C@H](Cc1c[nH]c2ccccc12)NC(=O)[C@H](CC(C)C)NC(=O)[C@H](CCC(=O)O)NC(=O)[C@H](CCCCN)NC(=O)[C@@H](NC(=O)[C@@H](N)Cc1ccccc1)C(C)C)C(C)C)C(=O)NCC(=O)N[C@@H](CO)C(=O)N[C@@H](C)C(=O)N[C@@H](C)C(=O)N[C@@H](Cc1c[nH]c2ccccc12)C(=O)N[C@@H](CO)C(=O)N[C@@H](C)C(=O)N[C@@H](C)C(=O)N[C@@H](CCCCN)C(=O)NCC(=O)N[C@@H](C)C(=O)N[C@@H](Cc1ccccc1)C(=O)N[C@@H](C)C(=O)O | F11 cells | intracellular calcium, FLIPR | – | 0.1% BSA | – | EC50 | 39.4 ± 10.7 µM |
| CC[C@H](C)[C@H](NC(=O)[C@H](CCCCN)NC(=O)[C@H](CCCCN)NC(=O)[C@H](C)NC(=O)[C@H](CC(C)C)NC(=O)[C@H](C)NC(=O)[C@H](C)NC(=O)[C@H](CC(C)C)NC(=O)[C@H](C)NC(=O)[C@H](CCCCN)NC(=O)[C@H](CC(C)C)NC(=O)[C@H](CC(N)=O)NC(=O)[C@@H](NC(=O)[C@H](CCCCN)NC(=O)CNC(=O)[C@H](CC(C)C)NC(=O)[C@H](CC(C)C)NC(=O)[C@H](Cc1c[nH]c2ccccc12)NC(=O)CNC(=O)[C@H](C)N)[C@@H](C)CC)C(=O)N[C@@H](CC(C)C)C(N)=O | sheep erythrocytes | turbidity | – | pH 7.5 | – | EC50 | 47 ± 12 µM |
| C[C@H]1CCC/C=C/[C@@H]2C[C@H](O)C[C@H]2[C@H](O)/C=C/C(=O)O1 | MCF-10A | cell growth or viability, ATP luminescence | – | – | – | EC50 | 0.11 µM |
| CC[P](CC)(CC)=[Au][S][C@@H]1O[C@H](COC(C)=O)[C@@H](OC(C)=O)[C@H](OC(C)=O)[C@H]1OC(C)=O | MCF-10A | cell growth or viability, resazurin | – | 72 h | – | EC50 | 3.19 µM |
| NC(=O)CCl | SW480 expressing Rad51-EGFP | Rad51 nuclear foci | – | 24 h | relative to: 10 µM camptothecin | EC50 | 300 µM |
| CC1(C)[C@H](C(=O)O[C@H](C#N)c2cccc(Oc3ccccc3)c2)[C@@H]1/C=C(\Cl)C(F)(F)F (racemic) | Caco-2 | viability, MTT | – | 240 h | – | EC50 | 59.5 ± 2.3 µM |
| CC[C@H](C)[C@H](NC(=O)[C@H](Cc1c[nH]c2ccccc12)NC(=O)[C@H](CCCCN)NC(=O)[C@@H](NC(=O)[C@H](CC(C)C)NC(=O)[C@H](CCCCN)NC(=O)CNC(=O)[C@@H](NC(=O)[C@@H](NC(=O)[C@H](CO)NC(=O)[C@@H](NC(=O)[C@@H](NC(=O)[C@H](CCCCN)NC(=O)[C@H](CCC(N)=O)NC(=O)[C@H](C)NC(=O)[C@H](CCSC)NC=O)[C@@H](C)CC)[C@@H](C)CC)[C@@H](C)O)[C@@H](C)CC)C(C)C)C(=O)N[C@H](C(=O)N[C@@H](CCCCN)C(=O)N[C@H](C(=O)N[C@H](C(=O)N[C@@H](CC(N)=O)C(=O)N[C@@H](CCCCN)C(=O)N[C@@H](Cc1ccccc1)C(=O)N[C@H](C(=O)N[C@@H](CCCCN)C(=O)N[C@@H](CCCCN)C(=O)O)[C@@H](C)O)C(C)C)[C@@H](C)O)[C@@H](C)CC (racemic) | sheep erythrocytes | turbidity | – | pH 7.5 | – | EC50 | 4.7 ± 1 µM |
| O=C(NC(=O)c1c(F)cccc1F)Nc1cc(Cl)c(F)c(Cl)c1F | Caco-2 | viability, MTT | – | 168 h | – | EC50 | 471 ± 37.6 µM |
| C[C@]12CC[C@@H]3c4ccc(O)cc4CC[C@H]3[C@@H]1CC[C@@H]2O | MCF7 stably expressing ERE-GFP | reporter gene, agonist, flow cytometry, measured: ERα-driven GFP | – | 24 h | – | EC50 | ~8e-05 µM |
| CC1(C)[C@H](C(=O)O[C@H](C#N)c2cccc(Oc3ccccc3)c2)[C@@H]1C=C(Br)Br | Caco-2 | viability, MTT | – | 72 h | – | EC50 | 191 ± 5.5 µM |
| CC[C@H](C)[C@H](NC(=O)[C@H](C)NC(=O)CNC(=O)[C@H](Cc1ccccc1)NC(=O)[C@H](CC(N)=O)NC(=O)[C@H](CC(N)=O)NC(=O)[C@H](CO)NC(=O)[C@H](CO)NC(=O)[C@H](Cc1c[nH]cn1)NC(=O)[C@@H](NC(=O)[C@H](CC(C)C)NC(=O)[C@H](Cc1ccccc1)NC(=O)[C@H](CC(N)=O)NC(=O)[C@H](C)NC(=O)[C@H](CC(C)C)NC(=O)[C@H](CCCNC(=N)N)NC(=O)[C@H](CCC(N)=O)NC(=O)[C@@H](NC(=O)[C@H](C)NC(=O)[C@@H]1CSSC[C@H](NC(=O)[C@@H](N)CCCCN)C(=O)N[C@@H](CC(N)=O)C(=O)N[C@@H]([C@@H](C)O)C(=O)N[C@@H](C)C(=O)N[C@@H]([C@@H](C)O)C(=O)N1)[C@@H](C)O)C(C)C)C(=O)N[C@@H](CC(C)C)C(=O)N[C@@H](CO)C(=O)N[C@@H](CO)C(=O)N[C@H](C(=O)N[C@@H](CC(N)=O)C(=O)N[C@H](C(=O)NCC(=O)N[C@@H](CO)C(=O)N[C@@H](CC(N)=O)C(=O)N[C@H](C(=O)N[C@@H](Cc1ccc(O)cc1)C(N)=O)[C@@H](C)O)C(C)C)[C@@H](C)O | INS-1 | cell viability, CellTiter-Glo | – | 24 h | – | EC50 | 48.1 µM |
| COP(=S)(OC)Oc1ccc([N+](=O)[O-])c(C)c1 | Caco-2 | viability, MTT | – | 168 h | – | EC50 | 25.6 ± 0.8 µM |
| N.N.[Cl][Pt][Cl] | HAP1 POLH-deficient | cell viability | – | with: 0.1 µM | – | EC50 | 0.1 µM |
